Experimental data pooled from the literature.
Numbered parts are unrelated; each lists some results of a single study.
Sequence of UniProt P42336 (whole entry, unmodified, looked up): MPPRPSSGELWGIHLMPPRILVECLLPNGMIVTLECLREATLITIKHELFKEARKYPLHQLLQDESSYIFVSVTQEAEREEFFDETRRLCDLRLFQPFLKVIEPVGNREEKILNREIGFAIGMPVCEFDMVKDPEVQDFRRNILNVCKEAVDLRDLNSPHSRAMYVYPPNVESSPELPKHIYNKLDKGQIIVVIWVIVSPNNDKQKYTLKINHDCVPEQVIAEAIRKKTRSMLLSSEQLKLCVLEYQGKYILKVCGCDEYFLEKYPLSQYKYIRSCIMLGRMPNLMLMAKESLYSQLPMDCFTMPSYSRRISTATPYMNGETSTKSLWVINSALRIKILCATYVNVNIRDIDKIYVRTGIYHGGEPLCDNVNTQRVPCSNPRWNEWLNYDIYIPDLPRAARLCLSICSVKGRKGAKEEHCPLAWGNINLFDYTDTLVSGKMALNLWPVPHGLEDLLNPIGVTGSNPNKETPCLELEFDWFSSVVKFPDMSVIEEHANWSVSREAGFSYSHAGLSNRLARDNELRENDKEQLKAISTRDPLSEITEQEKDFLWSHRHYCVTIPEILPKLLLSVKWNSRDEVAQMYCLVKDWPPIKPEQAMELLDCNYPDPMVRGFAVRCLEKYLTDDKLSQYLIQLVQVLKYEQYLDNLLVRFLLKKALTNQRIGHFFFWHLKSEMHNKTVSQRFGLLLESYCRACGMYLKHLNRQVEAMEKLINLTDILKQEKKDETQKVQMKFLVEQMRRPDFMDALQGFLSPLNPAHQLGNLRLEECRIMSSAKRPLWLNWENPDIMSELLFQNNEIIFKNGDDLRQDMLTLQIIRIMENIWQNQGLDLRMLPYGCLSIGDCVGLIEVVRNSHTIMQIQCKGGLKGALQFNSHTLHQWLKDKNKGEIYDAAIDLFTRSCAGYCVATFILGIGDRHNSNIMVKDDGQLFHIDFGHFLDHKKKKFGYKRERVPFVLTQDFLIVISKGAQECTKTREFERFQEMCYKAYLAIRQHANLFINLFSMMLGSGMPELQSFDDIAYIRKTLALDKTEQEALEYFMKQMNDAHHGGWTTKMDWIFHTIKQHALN
Sequence of UniProt P22607 (whole entry, looked up): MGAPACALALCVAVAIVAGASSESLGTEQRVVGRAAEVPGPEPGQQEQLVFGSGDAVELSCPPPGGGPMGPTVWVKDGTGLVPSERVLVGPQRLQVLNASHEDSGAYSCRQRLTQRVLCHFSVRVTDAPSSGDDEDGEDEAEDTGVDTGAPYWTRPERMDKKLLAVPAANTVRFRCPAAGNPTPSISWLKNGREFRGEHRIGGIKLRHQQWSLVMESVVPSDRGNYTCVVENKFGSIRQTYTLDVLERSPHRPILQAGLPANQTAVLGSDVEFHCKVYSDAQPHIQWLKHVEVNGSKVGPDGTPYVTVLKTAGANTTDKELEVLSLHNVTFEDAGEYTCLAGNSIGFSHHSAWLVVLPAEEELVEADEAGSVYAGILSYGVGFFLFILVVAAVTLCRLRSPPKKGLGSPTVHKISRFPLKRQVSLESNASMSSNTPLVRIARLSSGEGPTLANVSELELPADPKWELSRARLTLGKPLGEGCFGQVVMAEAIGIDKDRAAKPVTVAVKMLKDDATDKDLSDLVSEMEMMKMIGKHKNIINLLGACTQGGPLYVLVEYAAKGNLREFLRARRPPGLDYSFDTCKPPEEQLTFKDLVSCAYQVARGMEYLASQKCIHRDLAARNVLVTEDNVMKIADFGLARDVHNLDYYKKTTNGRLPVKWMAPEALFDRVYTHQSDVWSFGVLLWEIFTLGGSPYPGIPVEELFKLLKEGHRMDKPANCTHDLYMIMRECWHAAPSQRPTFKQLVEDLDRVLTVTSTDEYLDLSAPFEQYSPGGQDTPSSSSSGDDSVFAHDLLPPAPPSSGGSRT
Sequence of UniProt P36507 (whole entry, looked up): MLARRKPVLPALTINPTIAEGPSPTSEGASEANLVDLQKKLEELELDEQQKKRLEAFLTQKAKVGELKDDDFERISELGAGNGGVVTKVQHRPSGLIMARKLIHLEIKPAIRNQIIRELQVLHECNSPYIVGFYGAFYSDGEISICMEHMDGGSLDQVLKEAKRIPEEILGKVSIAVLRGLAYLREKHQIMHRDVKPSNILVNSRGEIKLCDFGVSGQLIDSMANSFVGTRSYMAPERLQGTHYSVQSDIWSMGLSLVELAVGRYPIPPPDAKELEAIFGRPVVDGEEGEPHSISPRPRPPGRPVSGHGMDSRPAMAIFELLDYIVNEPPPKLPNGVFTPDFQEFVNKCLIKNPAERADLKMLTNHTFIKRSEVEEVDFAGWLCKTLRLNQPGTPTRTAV
Sequence of UniProt Q86UE8 (whole entry, looked up): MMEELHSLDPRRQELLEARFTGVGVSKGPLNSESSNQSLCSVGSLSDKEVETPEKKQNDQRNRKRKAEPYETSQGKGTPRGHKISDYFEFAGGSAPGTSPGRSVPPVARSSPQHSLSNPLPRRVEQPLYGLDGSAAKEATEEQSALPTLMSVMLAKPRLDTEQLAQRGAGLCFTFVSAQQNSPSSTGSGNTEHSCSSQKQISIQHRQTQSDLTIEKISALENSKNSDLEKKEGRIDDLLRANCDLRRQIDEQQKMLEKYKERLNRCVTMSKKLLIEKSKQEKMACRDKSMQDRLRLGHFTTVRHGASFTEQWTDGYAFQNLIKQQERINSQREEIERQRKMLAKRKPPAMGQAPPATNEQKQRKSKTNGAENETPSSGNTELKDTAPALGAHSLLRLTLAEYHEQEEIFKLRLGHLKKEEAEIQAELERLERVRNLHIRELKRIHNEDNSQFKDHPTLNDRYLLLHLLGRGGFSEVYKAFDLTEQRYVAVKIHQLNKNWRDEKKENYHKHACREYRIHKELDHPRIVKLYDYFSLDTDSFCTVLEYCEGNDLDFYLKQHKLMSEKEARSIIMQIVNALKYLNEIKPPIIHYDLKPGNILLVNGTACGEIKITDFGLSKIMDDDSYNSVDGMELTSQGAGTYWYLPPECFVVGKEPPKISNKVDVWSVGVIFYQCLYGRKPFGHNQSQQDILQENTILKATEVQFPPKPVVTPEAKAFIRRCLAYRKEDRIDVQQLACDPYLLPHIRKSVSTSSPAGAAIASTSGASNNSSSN
Sequence of UniProt P27361 (whole entry, looked up): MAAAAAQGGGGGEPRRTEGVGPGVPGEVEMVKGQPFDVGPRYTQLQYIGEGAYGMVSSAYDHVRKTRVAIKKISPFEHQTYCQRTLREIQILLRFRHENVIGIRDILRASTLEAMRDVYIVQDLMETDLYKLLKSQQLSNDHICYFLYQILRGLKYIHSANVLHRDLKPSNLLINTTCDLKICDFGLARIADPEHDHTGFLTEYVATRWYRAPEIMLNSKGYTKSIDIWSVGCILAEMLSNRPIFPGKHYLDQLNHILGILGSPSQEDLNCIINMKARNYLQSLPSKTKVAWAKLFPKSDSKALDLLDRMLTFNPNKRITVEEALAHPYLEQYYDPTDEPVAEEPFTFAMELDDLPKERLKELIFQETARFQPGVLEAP
Sequence of UniProt Q99558 (whole entry, looked up): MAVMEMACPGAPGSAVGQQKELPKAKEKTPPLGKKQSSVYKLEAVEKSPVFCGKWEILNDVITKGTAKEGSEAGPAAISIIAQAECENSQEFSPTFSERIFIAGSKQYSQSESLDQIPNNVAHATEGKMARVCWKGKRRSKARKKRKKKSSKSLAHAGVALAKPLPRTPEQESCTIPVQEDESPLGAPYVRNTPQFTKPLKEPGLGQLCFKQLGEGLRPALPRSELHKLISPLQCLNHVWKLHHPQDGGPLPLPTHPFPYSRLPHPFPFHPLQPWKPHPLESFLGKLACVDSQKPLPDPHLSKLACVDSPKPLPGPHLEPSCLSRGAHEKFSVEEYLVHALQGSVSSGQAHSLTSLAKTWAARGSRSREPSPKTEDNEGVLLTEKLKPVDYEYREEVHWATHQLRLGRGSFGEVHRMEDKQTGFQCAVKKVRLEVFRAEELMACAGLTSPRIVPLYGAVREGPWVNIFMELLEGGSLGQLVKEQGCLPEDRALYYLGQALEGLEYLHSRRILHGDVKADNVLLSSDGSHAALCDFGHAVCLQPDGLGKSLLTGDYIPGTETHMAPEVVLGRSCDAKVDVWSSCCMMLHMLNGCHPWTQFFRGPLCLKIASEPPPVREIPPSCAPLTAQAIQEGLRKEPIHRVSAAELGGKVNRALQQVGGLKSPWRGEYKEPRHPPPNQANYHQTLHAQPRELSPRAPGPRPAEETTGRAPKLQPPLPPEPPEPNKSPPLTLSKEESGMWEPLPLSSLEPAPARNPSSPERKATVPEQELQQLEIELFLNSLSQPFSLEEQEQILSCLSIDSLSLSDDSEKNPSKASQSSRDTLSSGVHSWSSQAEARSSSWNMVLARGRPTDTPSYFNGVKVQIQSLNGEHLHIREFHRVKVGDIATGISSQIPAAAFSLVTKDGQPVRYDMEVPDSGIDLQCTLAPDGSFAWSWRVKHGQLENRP
Sequence of UniProt Q8WTQ7 (whole entry, looked up): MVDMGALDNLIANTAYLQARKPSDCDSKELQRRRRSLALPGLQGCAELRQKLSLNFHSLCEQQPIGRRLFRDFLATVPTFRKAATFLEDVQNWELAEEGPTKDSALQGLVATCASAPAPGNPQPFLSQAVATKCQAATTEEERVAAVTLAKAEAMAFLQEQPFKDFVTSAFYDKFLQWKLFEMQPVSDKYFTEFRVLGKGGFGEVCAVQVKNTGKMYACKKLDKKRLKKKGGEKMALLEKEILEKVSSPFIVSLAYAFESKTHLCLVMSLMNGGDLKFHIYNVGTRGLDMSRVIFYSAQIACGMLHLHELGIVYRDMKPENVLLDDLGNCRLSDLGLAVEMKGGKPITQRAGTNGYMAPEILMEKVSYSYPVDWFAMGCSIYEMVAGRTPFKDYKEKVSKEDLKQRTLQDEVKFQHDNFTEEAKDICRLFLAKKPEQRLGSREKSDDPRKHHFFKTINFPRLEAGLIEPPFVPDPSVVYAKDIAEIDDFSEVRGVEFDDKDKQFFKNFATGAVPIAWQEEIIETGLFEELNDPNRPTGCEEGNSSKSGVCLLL

Block 1
Structure (SMILES): COc1cc2c(cc1OC)-c1[nH]nc(Nc3cccc(F)c3)c1C2
Effect on: enzyme activity
Action: inhibitor
Concentration: 0.5 µM
Relative to: control
For Rhodopsin kinase GRK7 (GRK7, Homo sapiens, UniProt Q8WTQ7): remaining activity read 101%.
Serine/threonine-protein kinase TAO2 (TAOK2, Homo sapiens, UniProt Q9UL54) — remaining activity: 97.1%.
It gave 93.7% for remaining activity (Mitogen-activated protein kinase 3 (MAPK3, Homo sapiens, UniProt P27361)).
Fibroblast growth factor receptor 3 (FGFR3, Homo sapiens, UniProt P22607) — remaining activity: 99.6%.
Glycogen synthase kinase-3 beta (GSK3B, Homo sapiens, UniProt P49841) — remaining activity: 96.6%.
Dual specificity mitogen-activated protein kinase kinase 2 (MAP2K2, Homo sapiens, UniProt P36507) — remaining activity: 99.8%.
Macrophage-stimulating protein receptor (MST1R, Homo sapiens, UniProt Q04912) — remaining activity: 99.1%.
It gave 98.6% for remaining activity (Tyrosine-protein kinase JAK3 (JAK3, Homo sapiens, UniProt P52333)).
For Serine/threonine-protein kinase A-Raf (ARAF, Homo sapiens, UniProt P10398): remaining activity read 98.9%.
The remaining activity was 95% (Casein kinase I isoform gamma-3 (CSNK1G3, Homo sapiens, UniProt Q9Y6M4)).
The remaining activity was 78.7% (Tyrosine-protein kinase Mer (MERTK, Homo sapiens, UniProt Q12866)).
It gave 105% for remaining activity (Mitogen-activated protein kinase kinase kinase 14 (MAP3K14, Homo sapiens, UniProt Q99558)).
The remaining activity was 97.3% (Serine/threonine-protein kinase ULK2 (ULK2, Homo sapiens, UniProt Q8IYT8)).

Block 2
Cell line: HH
Concentration: 2 µM
Time: 48 h
Relative to: untreated
`NC(=O)c1cccc(-c2cc(Nc3ccc(OC(F)(F)F)cc3)ncn2)c1` has a viability of 98.7%.
The viability of `Cc1c[nH]c2nc(Nc3ccc(N4CCN(C)CC4)c(F)c3)nc(-c3cccc(CC#N)c3)c12` is reported as 27.8%.
With `COc1cc2c(Nc3ccc(NC(=O)c4ccccc4)cc3)ncnc2cc1OCCCN1CCOCC1` the viability was 75.3%.
`O=C(c1ccc(F)c(F)c1Nc1ccc(I)cc1F)N1CC(O)([C@@H]2CCCCN2)C1` has a viability of 92.6%.
With `CN1CCC(Nc2nc(Nc3ccc(Oc4ccccc4)cc3)c3c(=O)[nH]cc(Br)c3n2)CC1` the viability was 91.3%.
For `CC(C)N(CCC(=O)c1ccc2ccccc2c1)Cc1ccccc1`, the viability was 82.3%.
With `C[C@@H](N)[C@H]1CC[C@H](C(=O)Nc2ccncc2)CC1` the viability was 99.1%.
`Oc1ccc(-c2nc(-c3ccc(F)cc3)c(-c3ccncc3)[nH]2)cc1` has a viability of 102%.
The viability of `COc1cc2c(Oc3ccc4[nH]c(C)cc4c3F)ncnc2cc1OCCCN1CCCC1` is reported as 96.4%.
The viability of `Cc1cc2c(F)c(Oc3ncnn4cc(OC[C@@H](C)OC(=O)[C@H](C)N)c(C)c34)ccc2[nH]1` is reported as 94.2%.
With `C#Cc1cccc(Nc2ncnc3cc(OCCOC)c(OCCO)cc23)c1` the viability was 91.9%.
For `CC(C)(C)c1ccc(S(=O)(=O)/C=C/C#N)cc1`, the viability was 71.3%.

Block 3
Medium: hydrocarbon/water
pH: 7.4
`CCC[C@H]1C(=O)N[C@@H](CC2CCCCC2)C(=O)N(C)[C@@H](C)C(=O)N[C@@H](CC(C)C)C(=O)N(C)Cc2cn(nn2)CC(=O)N[C@@H](C2CCCCC2)C(=O)N(C)[C@@H](C)C(=O)N[C@@H](CC2CCCCC2)C(=O)N2CCC[C@@H]2C(=O)N1C` has a logD of 2.7.
`CCN1CC(=O)NC(CC(C)C)C(=O)N(C)C(C)C(=O)NC(CC(C)C)C(=O)N2CCCC2C(=O)N(CC2CCCCC2)CC(=O)NC(CC(C)C)C(=O)N(C)C(C)C(=O)NC(Cc2ccccc2)C(=O)N2CCCC2C1=O` (stereo not drawn) gave a logD of ≥ 3.4.
The logD of `CCCN1CC(=O)N[C@@H](CC2CCCCC2)C(=O)N(C)[C@@H](C)C(=O)N[C@@H](CC(C)C)C(=O)N(C)Cc2cn(nn2)CC(=O)N[C@@H](C2CCCCC2)C(=O)N(C)[C@@H](C)C(=O)N[C@@H](CC2CCCCC2)C(=O)N2CCC[C@@H]2C1=O` is reported as 2.77.
`CCCCCN1CC(=O)N[C@@H](Cc2ccccc2)C(=O)N2CCC[C@@H]2C(=O)N(C)[C@@H](CC(C)C)C(=O)N[C@@H](C)C(=O)N(CC)CC(=O)N[C@@H](CC(C)C)C(=O)N2CCC[C@@H]2C(=O)N(C)[C@@H](CC(C)C)C(=O)N[C@@H](C)C1=O` has a logD of 1.97.
`CCCCCN1CC(=O)NC(CC(C)C)C(=O)N(C)C(C)C(=O)NC(Cc2ccccc2)C(=O)N2CCCC2C(=O)N(CCCOC(C)C)CC(=O)NC(CC(C)C)C(=O)N(C)C(C)C(=O)NC(CC(C)C)C(=O)N2CCCC2C1=O` (stereo not drawn) gave a logD of ≥ 3.32.
With `CC(C)C[C@@H]1NC(=O)[C@H](Cc2ccc(O)cc2)N(C)C(=O)[C@H]2CCCN2C(=O)[C@H](CC(C)C)NC(=O)[C@H](CC(C)C)N(C)C(=O)[C@@H](C)N(C)C1=O` the logD was 0.638.
For `CC(C)C[C@@H]1NC(=O)CN(CCCOC(C)C)C(=O)[C@H](C)NC(=O)[C@H](CC(C)C)N(C)C(=O)[C@H]2CCCN2C(=O)[C@H](C)NC(=O)CN(CC2CCCCC2)C(=O)[C@H](C)NC(=O)[C@H](CC(C)C)N(C)C(=O)[C@H]2CCCN2C1=O`, the logD was 2.

Block 4
Structure (SMILES): O=C(Nc1ccc(Oc2ccc(F)cc2)cc1)N1CCc2ncccc2[C@H]1c1ccc(F)cc1
Concentration: 1 µM
Serine/threonine-protein kinase MRCK gamma (CDC42BPG, Homo sapiens, UniProt Q6DT37); competition binding — remaining binding: 93%.
The remaining binding was 92% (Tyrosine-protein kinase ABL1, phosphorylated (ABL1, Homo sapiens, UniProt P00519, H396P); cell-free assay, competition with immobilised ligand).
For Phosphatidylinositol 4,5-bisphosphate 3-kinase catalytic subunit alpha isoform (PIK3CA, Homo sapiens, UniProt P42336, I800L); cell-free assay, competition with immobilised ligand: remaining binding read 66%.
The remaining binding was 96% (5'-AMP-activated protein kinase catalytic subunit alpha-1 (PRKAA1, Homo sapiens, UniProt Q13131); cell-free assay, competition with immobilised ligand).
The remaining binding was 94% (Tyrosine-protein kinase ABL1, non-phosphorylated (ABL1, Homo sapiens, UniProt P00519, F317I); binding, competition with immobilised ligand).
The remaining binding was 100% (Serine/threonine-protein kinase tousled-like 2 (TLK2, Homo sapiens, UniProt Q86UE8); cell-free assay, competition with immobilised ligand).
It gave 89% for remaining binding (Phosphatidylinositol 4,5-bisphosphate 3-kinase catalytic subunit alpha isoform (PIK3CA, Homo sapiens, UniProt P42336, M1043I); cell-free assay, competition with immobilised ligand).
The remaining binding was 100% (Calcium/calmodulin-dependent protein kinase type 1D (CAMK1D, Homo sapiens, UniProt Q8IU85); cell-free assay, competition with immobilised ligand).
Fibroblast growth factor receptor 3 (FGFR3, Homo sapiens, UniProt P22607); cell-free assay, competition with immobilised ligand — remaining binding: 83%.
The remaining binding was 91% (Mast/stem cell growth factor receptor Kit, autoinhibited (KIT, Homo sapiens, UniProt P10721); cell-free assay, competition with immobilised ligand).

For quick reference, copied from above (block 4):
The remaining binding was 100% (Serine/threonine-protein kinase tousled-like 2 (TLK2, Homo sapiens, UniProt Q86UE8); cell-free assay, competition with immobilised ligand).
It gave 89% for remaining binding (Phosphatidylinositol 4,5-bisphosphate 3-kinase catalytic subunit alpha isoform (PIK3CA, Homo sapiens, UniProt P42336, M1043I); cell-free assay, competition with immobilised ligand).
The remaining binding was 100% (Calcium/calmodulin-dependent protein kinase type 1D (CAMK1D, Homo sapiens, UniProt Q8IU85); cell-free assay, competition with immobilised ligand).
